Measurements gathered from unrelated publications.
Each line is one published result; not all experiments were run side by side. Numbers after ± are the reported error.
LRP6 E1 domain: Low-density lipoprotein receptor-related protein 6, E1 domain (LRP6, Homo sapiens, UniProt O75581)
Sequence of UniProt O75581 (whole entry, looked up): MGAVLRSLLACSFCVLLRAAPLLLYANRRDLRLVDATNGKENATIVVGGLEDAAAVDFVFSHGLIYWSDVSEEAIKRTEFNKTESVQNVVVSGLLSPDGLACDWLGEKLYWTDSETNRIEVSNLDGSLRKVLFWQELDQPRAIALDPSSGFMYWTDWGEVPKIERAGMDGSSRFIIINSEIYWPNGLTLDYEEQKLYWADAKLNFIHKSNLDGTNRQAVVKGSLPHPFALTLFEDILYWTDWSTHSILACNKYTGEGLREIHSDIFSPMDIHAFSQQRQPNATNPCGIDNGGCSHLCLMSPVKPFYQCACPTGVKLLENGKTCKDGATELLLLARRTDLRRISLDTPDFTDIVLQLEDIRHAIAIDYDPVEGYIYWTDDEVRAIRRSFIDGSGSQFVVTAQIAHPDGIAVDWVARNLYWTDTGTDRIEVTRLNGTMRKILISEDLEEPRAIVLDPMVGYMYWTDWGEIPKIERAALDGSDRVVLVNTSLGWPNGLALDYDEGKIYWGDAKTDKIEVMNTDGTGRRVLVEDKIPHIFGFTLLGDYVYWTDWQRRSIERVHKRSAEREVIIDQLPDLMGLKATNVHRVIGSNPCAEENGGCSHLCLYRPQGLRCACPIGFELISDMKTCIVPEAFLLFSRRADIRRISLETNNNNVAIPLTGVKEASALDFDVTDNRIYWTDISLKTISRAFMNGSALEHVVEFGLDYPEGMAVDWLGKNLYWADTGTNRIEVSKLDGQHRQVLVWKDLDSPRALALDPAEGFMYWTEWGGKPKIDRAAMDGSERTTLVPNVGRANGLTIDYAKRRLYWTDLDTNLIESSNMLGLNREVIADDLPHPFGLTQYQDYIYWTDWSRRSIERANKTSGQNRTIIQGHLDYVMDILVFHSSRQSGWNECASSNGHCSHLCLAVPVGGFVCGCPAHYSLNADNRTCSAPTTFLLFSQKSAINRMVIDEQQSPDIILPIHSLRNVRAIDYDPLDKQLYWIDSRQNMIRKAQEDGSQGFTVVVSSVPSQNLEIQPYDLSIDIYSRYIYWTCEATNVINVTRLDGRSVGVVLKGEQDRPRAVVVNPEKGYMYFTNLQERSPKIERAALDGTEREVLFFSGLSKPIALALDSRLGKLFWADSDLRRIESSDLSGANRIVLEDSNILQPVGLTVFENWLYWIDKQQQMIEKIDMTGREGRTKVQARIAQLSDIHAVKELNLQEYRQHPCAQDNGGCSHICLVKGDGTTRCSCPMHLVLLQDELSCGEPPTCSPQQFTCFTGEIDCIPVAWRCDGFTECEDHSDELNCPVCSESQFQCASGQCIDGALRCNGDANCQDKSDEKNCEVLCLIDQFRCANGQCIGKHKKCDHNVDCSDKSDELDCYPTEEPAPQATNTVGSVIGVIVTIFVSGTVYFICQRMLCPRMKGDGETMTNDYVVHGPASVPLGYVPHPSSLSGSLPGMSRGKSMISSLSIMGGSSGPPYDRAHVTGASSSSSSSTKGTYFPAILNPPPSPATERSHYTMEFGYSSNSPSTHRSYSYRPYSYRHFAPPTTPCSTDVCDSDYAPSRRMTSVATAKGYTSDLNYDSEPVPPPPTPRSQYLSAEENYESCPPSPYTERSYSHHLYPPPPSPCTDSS
YWHAZ: 14-3-3 protein zeta/delta (YWHAZ, Homo sapiens, UniProt P63104)
Sequence of UniProt P63104 (whole entry, looked up): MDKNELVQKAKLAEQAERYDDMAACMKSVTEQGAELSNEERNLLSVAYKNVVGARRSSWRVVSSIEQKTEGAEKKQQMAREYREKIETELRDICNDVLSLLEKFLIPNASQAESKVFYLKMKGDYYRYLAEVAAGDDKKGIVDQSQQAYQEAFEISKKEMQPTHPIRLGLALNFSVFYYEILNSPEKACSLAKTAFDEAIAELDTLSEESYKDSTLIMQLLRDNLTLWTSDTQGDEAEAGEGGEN
Sequence of UniProt P97287 (152-308, looked up): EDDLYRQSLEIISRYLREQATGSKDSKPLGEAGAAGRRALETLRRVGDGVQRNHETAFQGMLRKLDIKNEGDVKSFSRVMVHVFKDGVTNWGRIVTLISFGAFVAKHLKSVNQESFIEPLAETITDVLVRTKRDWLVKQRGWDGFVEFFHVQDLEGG
Sequence of UniProt O60674 (whole entry, looked up): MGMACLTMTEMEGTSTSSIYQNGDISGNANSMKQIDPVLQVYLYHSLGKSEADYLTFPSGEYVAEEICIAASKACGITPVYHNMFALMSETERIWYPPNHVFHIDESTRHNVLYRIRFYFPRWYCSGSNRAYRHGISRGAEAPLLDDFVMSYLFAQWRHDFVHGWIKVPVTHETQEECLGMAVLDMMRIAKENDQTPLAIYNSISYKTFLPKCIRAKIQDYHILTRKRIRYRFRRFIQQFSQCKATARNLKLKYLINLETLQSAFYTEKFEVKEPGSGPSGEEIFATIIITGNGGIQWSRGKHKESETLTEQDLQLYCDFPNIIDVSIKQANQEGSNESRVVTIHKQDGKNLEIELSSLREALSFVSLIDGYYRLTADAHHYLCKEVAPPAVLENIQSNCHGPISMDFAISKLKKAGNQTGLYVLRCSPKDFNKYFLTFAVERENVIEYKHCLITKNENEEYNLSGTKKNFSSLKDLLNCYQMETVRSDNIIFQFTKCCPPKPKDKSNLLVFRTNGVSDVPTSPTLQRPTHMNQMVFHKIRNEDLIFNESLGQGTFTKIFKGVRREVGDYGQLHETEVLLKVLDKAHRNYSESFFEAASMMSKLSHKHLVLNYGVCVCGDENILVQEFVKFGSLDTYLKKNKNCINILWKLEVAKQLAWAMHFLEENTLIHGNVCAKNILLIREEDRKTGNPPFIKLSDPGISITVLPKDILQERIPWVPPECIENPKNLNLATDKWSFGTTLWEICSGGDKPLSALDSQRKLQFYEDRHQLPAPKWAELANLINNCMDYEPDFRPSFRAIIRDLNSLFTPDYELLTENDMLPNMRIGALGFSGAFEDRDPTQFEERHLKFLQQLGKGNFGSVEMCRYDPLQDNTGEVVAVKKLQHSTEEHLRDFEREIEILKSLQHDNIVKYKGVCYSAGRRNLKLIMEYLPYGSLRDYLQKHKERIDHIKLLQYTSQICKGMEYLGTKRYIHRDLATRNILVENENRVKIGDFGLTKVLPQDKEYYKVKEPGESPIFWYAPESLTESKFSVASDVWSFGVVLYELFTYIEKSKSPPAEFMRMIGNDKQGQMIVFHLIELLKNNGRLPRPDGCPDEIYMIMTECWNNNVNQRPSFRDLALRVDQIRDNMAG
Sequence of UniProt P42568 (whole entry, unmodified, looked up): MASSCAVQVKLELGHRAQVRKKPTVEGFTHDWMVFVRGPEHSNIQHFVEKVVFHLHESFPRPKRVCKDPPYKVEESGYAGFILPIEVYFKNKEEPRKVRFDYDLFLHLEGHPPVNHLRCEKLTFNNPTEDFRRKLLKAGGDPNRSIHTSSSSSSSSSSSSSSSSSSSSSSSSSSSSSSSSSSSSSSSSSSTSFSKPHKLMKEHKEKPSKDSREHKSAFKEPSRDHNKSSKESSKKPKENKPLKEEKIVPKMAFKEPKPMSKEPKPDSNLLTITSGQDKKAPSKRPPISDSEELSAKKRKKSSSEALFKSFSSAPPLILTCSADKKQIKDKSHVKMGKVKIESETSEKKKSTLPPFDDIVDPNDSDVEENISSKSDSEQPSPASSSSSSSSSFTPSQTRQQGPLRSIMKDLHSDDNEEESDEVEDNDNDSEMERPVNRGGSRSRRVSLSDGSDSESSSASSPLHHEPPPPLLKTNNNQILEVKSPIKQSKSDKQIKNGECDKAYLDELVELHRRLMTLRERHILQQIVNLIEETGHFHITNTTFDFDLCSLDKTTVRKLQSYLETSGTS
Sequence of UniProt P46109 (whole entry, looked up): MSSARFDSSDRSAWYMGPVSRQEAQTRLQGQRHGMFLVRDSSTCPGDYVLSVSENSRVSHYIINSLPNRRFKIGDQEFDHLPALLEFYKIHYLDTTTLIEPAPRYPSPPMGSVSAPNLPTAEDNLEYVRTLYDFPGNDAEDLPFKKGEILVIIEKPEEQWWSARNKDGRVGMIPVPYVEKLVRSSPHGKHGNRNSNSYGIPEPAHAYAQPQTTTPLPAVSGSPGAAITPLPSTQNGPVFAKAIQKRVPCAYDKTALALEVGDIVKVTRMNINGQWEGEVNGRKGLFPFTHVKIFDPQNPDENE
Sequence of UniProt Q8NEZ5 (whole entry, looked up): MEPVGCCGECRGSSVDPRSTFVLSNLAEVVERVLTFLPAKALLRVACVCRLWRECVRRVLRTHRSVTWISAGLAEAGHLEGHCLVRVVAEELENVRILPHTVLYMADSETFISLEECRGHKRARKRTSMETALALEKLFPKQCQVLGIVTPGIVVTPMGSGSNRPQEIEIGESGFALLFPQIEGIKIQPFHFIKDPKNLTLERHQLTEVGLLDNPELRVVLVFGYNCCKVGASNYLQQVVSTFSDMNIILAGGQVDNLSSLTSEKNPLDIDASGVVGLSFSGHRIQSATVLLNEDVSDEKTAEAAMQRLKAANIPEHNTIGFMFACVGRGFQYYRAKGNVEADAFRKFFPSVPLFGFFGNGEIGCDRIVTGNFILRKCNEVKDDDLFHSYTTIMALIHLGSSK
Sequence of UniProt Q9H7M9 (whole entry, looked up): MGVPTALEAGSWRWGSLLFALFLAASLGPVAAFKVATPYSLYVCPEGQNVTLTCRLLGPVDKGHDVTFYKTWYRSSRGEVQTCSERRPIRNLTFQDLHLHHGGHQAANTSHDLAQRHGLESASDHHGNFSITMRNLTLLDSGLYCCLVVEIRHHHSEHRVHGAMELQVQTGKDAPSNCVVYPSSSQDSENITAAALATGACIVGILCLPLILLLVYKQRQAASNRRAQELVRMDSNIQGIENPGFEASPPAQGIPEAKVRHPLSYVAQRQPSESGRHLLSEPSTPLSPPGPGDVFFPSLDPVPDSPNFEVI
Sequence of UniProt P30048 (whole entry, looked up): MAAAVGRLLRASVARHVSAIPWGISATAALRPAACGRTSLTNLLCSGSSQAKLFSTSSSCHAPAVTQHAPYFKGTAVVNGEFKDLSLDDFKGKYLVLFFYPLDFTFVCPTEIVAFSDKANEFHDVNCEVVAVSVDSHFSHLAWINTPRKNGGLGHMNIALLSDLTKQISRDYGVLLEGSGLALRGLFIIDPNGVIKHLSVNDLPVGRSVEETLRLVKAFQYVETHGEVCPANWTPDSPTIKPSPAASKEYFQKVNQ

| SMILES | target | assay | test system | setting | Kd [nM] |
| --- | --- | --- | --- | --- | --- |
| CC(C)C[C@H](NC(=O)CNC(=O)[C@H](C)NC(=O)[C@H](CC(=O)O)NC(=O)[C@H](CC(=O)O)NC(=O)[C@H](C)NC(=O)[C@H](C)NC(=O)[C@H](CCCCN)NC(=O)CNC(=O)[C@@H]1CCCN1C(=O)[C@@H]1CCCN1C(=O)[C@@H]1CCCN1C(=O)[C@H](CCC(=O)O)NC(=O)CN)C(=O)N[C@H](C(=O)O)C(C)C | F-box only protein 22 (Homo sapiens, UniProt Q8NEZ5) | binding, SPR |  |  | 33000 |
| CCCCCCCCCCCCCCCCOC[C@H](COP(=O)([O-])OCC[N+](C)(C)C)OC(C)=O | Cyclic AMP-dependent transcription factor ATF-3 (ATF3, Homo sapiens, UniProt P18847) | binding |  |  | 3240 |
| CC(C)C[C@@H]1NC(=O)[C@@H]2CSSC[C@@H](C(=O)NCC(=O)O)NC(=O)[C@H](Cc3ccccc3)NC(=O)CNC(=O)[C@H](CC(N)=O)NC(=O)[C@@H]3CCCN3C(=O)CNC(=O)[C@@H]3CSSC[C@H](NC(=O)[C@H](CCCNC(=N)N)NC(=O)[C@H](CC(N)=O)NC(=O)[C@H](Cc4c[nH]cn4)NC(=O)[C@H](CCCCN)NC(=O)[C@H](CC(C)C)NC(=O)[C@H](CCCCN)NC(=O)[C@H](Cc4c[nH]cn4)NC(=O)[C@H](CC(N)=O)NC(=O)[C@H](CO)NC(=O)[C@H](CCC(N)=O)NC(=O)[C@@H](NC(=O)CN)CSSC[C@H](NC(=O)CNC(=O)[C@H](C)NC1=O)C(=O)N[C@@H](C(C)C)C(=O)N3)C(=O)N[C@@H](CCCCN)C(=O)N[C@@H](CCC(N)=O)C(=O)N[C@@H](CC(=O)O)C(=O)N[C@@H](CO)C(=O)N[C@@H](CC(=O)O)C(=O)N2 | LRP6 E1 domain | binding, SPR |  | pH 7.5 | > 1000 |
| CC[C@@H](C)[C@@H](NC(=O)[C@@H](CCC(N)=O)NC(=O)[C@H](NC(=O)[C@H]1CCCN1C(=O)[C@H](NC(=O)[C@@H](CO)NC(=O)[C@@H](Cc1ccccc1)NC(=O)[C@H]1CCCN1C(=O)[C@@H](CCC(N)=O)NC(=O)[C@H](N)CCSC)[C@H](C)CC)C(C)C)C(=O)N[C@@H](C(=O)N[C@H](CC(C)C)C(=O)N[C@H](CCC(N)=O)C(=O)NCC(=O)N[C@H](CO)C(=O)N[C@H](CCCNC(=N)N)C(=O)N[C@H](CCCNC(=N)N)C(=O)N[C@H](CCCNC(=N)N)C(=O)N[C@H](CCC(N)=O)C(=O)NCC(=O)N[C@H](CCCNC(=N)N)C(N)=O)[C@H](C)O | Kcnma1 (Mus musculus, UniProt Q08460) | ion current, blocker, inside-out patch clamp | Xenopus oocytes | +140 mV, together with: 10 µM cytosolic Ca2+ | 2400 |
| CC(=O)N[C@@H](Cc1ccc(O)cc1)C(=O)N[C@@H](CC(N)=O)C(=O)N1CCC[C@H]1C(=O)N[C@@H](Cc1ccccc1)C(=O)N[C@@H](CCC(=O)O)C(=O)N[C@@H](CCC(=O)O)C(=O)NCC(=O)NCC(N)=O | EH domain-containing protein 1, EH domain (Homo sapiens, UniProt Q9H4M9) | binding, isothermal titration calorimetry |  | 20 °C, 0 mM NaCl | 5600 ± 600 |
| CC(=O)N[C@@H](CCCNC(=N)N)C(=O)N[C@H](C(=O)N[C@@H](CCCCN)C(=O)N[C@@H](CCC(N)=O)C(=O)N[C@H](C(=O)N[C@@H](C)C(=O)N[C@@H](CCCNC(=N)N)C(=O)N[C@@H](CCCCNC(=O)c1ccccc1)C(=O)N[C@@H](CO)C(=O)N[C@H](C(=O)NCC(=O)NCC(=O)N[C@@H](CCCCN)C(=O)N[C@@H](C)C(=O)N1CCC[C@H]1C(N)=O)[C@@H](C)O)[C@@H](C)O)[C@@H](C)O | Protein AF-9 (Homo sapiens, UniProt P42568, F28S) | ITC |  | 15 °C, mutant | 3800 |
| CC(C)C[C@@H]1NC(=O)[C@@H]2CSSC[C@@H](C(=O)NCC(=O)O)NC(=O)[C@H](Cc3ccccc3)NC(=O)CNC(=O)[C@H](CC(N)=O)NC(=O)[C@@H]3CCCN3C(=O)CNC(=O)[C@@H]3CSSC[C@H](NC(=O)[C@H](CCCNC(=N)N)NC(=O)[C@H](CCC(N)=O)NC(=O)[C@H](CCCNC(=N)N)NC(=O)[C@H](CCCCN)NC(=O)[C@H](C(C)C)NC(=O)[C@H](C)NC(=O)[C@H](CC(N)=O)NC(=O)[C@H](CO)NC(=O)[C@H](C)NC(=O)[C@H](CCCNC(=N)N)NC(=O)[C@@H](NC(=O)CN)CSSC[C@H](NC(=O)CNC(=O)[C@H](C)NC1=O)C(=O)N[C@@H](C(C)C)C(=O)N3)C(=O)N[C@@H](CCCCN)C(=O)N[C@@H](CCC(N)=O)C(=O)N[C@@H](CC(=O)O)C(=O)N[C@@H](CO)C(=O)N[C@@H](CC(=O)O)C(=O)N2 | LRP6 E1 domain | binding, SPR |  | pH 7.5 | 21.2 |
| CSCC[C@H](NC=O)C(=O)N[C@@H](CCCNC(=N)N)C(=O)N[C@H](C(=O)NCC(=O)N[C@@H](CC(N)=O)C(=O)N[C@@H](C)C(=O)N[C@@H](CC(N)=O)C(=O)NCC(=O)NCC(=O)N[C@@H](CCCCNC(=S)Nc1ccc2c(c1)C(=O)OC21c2ccc(O)cc2Oc2cc(O)ccc21)C(=O)O)[C@@H](C)O | Uncharacterized protein YejA (yejA, Escherichia coli, UniProt P33913, D179A) | binding, fluorescence polarisation |  | YejA variant D161A | 35700 ± 4350 |
| CC[C@H](C)[C@H](NC(=O)[C@H](CC(=O)O)NC(=O)[C@H](CCCNC(=N)N)NC(=O)[C@@H](NC(=O)c1ccc2c(c1)C(=O)OC21c2ccc(N(C)C)cc2Oc2cc(N(C)C)ccc21)[C@@H](C)O)C(=O)N[C@@H](Cc1ccc(O)cc1)C(=O)N[C@@H](CCC(=O)O)C(=O)N[C@H](C(=O)N[C@@H](CC(=O)O)C(=O)N[C@@H](Cc1ccc(O)cc1)C(=O)N[C@@H](Cc1ccc(OP(=O)(O)O)cc1)C(=O)N[C@@H](CCCNC(=N)N)C(=O)N[C@@H](CCCCN)C(=O)NCC(=O)NCC(=O)N[C@@H](CCCCN)C(=O)NCC(=O)N[C@@H](CC(C)C)C(=O)N[C@@H](CC(=O)O)C(=O)O)[C@@H](C)O | Crk-like protein, SH2 domain (Homo sapiens, UniProt P46109) | binding |  |  | 1830 |
| O=C(N[C@@H]1c2ccccc2C[C@H]1N1CCCC1)c1ccc(-c2ccnc3[nH]ccc23)nc1 | Tyrosine-protein kinase JAK2, JH1 (JAK2, Homo sapiens, UniProt O60674) | binding, competition with immobilised ligand |  |  | 58 |
| CC(=O)N[C@@H](CCCNC(=N)N)C(=O)N[C@H](C(=O)N1CCC[C@H]1C(=O)N[C@@H](COP(=O)(O)O)C(=O)N[C@@H](CC(C)C)C(=O)N1CCC[C@H]1C(=O)N[C@@H](C)C(=O)N1CCC[C@H]1C(c1ccccc1)c1ccccc1)[C@@H](C)O | YWHAZ | isothermal titration calorimetry |  |  | 4670 ± 990 |
| CC[C@H](C)[C@H](NC(=O)[C@H](CCC(=O)O)NC(=O)[C@H](CCCNC(=N)N)NC(=O)[C@H](C)NC(=O)[C@H](Cc1c[nH]c2ccccc12)NC(=O)[C@H](CCC(=O)O)NC(=O)[C@H](CCC(=O)O)NC(=O)[C@H](CCC(=O)O)NC(C)=O)C(=O)NCC(=O)N[C@@H](C)C(=O)N[C@@H](CCC(N)=O)C(=O)N[C@@H](CC(C)C)C(=O)N[C@@H](CCCNC(=N)N)C(=O)N[C@@H](CCCNC(=N)N)C(=O)N[C@@H](C)C(=O)N[C@@H](C)C(=O)N[C@@H](CC(=O)O)C(=O)N[C@@H](CC(=O)O)C(=O)N[C@@H](CC(C)C)C(=O)N[C@@H](CC(N)=O)C(=O)N[C@@H](C)C(=O)N[C@@H](CCC(N)=O)C(=O)N[C@@H](Cc1csc2ccccc12)C(=O)N[C@@H](CCC(=O)O)C(=O)N[C@@H](CCCNC(=N)N)C(=O)N[C@@H](CCCNC(=N)N)C(=O)N[C@@H](CCCNC(=N)N)C(N)=O | Induced myeloid leukemia cell differentiation protein Mcl-1 homolog, residues 152-308 (Mus musculus, UniProt P97287) | binding, SPR |  | 0.2% DMSO | 4.5 |
| CC(C)C[C@H](NC(=O)[C@H](CCP(=O)(O)O)NC(=O)[C@@H](NC(=O)[C@@H](NC(=O)[C@H](CCCNC(=N)N)NC(=O)[C@H](CC(C)C)NC(=O)[C@H](CO)NC(=S)Nc1ccc2c(c1)C(=O)OC21c2ccc(O)cc2Oc2cc(O)ccc21)[C@@H](C)O)C(C)C)C(=O)NCC(=O)N[C@@H](C)C(=O)NCC(=O)N[C@@H](C)C(=O)N[C@@H](Cc1c[nH]c2ccccc12)C(=O)N[C@@H](CC(C)C)C(=O)N[C@H](C(=O)N1CCC[C@H]1C(=O)N[C@@H](CCCNC(=N)N)C(=O)O)C(C)C | YWHAZ | binding, fluorescence anisotropy |  | pH 7.5, FITC-labelled phosphopeptide titration | 36300 |
| CC(C)C[C@H](NC(=O)[C@H](Cc1c[nH]c2ccccc12)NC(=O)CNC(=O)[C@H](Cc1ccccc1)NC(=O)[C@H](CO)NC(=O)[C@H](Cc1c[nH]c2ccccc12)NC(=O)CNC(=O)[C@@H]1CCCN1C(=O)[C@@H]1CCCN1)C(=O)N[C@@H](Cc1c[nH]cn1)C(=O)N[C@@H](C)C(=O)N1CCC[C@H]1C(=O)O | V-type immunoglobulin domain-containing suppressor of T-cell activation, IgV domain (VSIR, Homo sapiens, UniProt Q9H7M9) | binding, microscale thermophoresis |  |  | 36 |
| CC(=O)NC1C(O)OC(CO)C(OC2OC(CO)C(OC3OC(CO)C(O)C(O)C3O)C(O)C2O)C1O (stereo not drawn) | sly (Streptococcus suis, UniProt Q55996, R465A) | binding |  |  | 269 |
| CCC1CC(=O)N[C@@H](CC(=O)O)C(=O)N2CC(CCO)C[C@H]2C(=O)N[C@@H](CCC(=O)O)C(=O)N[C@@H]([C@@H](C)O)C(=O)NCC(=O)N[C@@H](CCC(=O)O)C(=O)N1 (stereo partly drawn) | KEAP1 (Homo sapiens, UniProt Q14145) | binding, MST |  |  | 19.8 |
| CC=C1CN2CCc3c([nH]c4ccccc34)C2CC1C(=COC)C(=O)OC (stereo not drawn) | PRDX3 (Homo sapiens, UniProt P30048) | binding, SPR |  |  | 21800 |
| CC[C@H](C)[C@@H]1NC(=O)[C@@H]2CCCN2C(=O)[C@H](Cc2c[nH]c3ccccc23)NC(=O)[C@H](CO)NC(=O)[C@H](Cc2c[nH]c3ccccc23)NC(=O)[C@H](CC(N)=O)NC(=O)[C@H](CCCCN)NC(=O)[C@H](CCSC)NC(=O)[C@@H]2CSCCC(=O)N3CN(CN(C3)C(=O)CCSC[C@H](NC(=O)[C@H](C)N)C(=O)N3CCC[C@H]3C(=O)N[C@@H](Cc3ccccc3)C(=O)NCC(=O)N2)C(=O)CCSC[C@@H](C(=O)N[C@H](C(=O)N[C@@H](CC(N)=O)C(=O)N[C@@H](CCCCN)C(=O)N(C)CC(=O)N(C)CC(=O)N(C)CC(=O)N(C)CC(=O)N(C)CC(=O)N(C)CC(=O)N[C@@H](CCCCNC(=O)c2ccc(C(=O)O)c(-c3c4ccc(=O)cc-4oc4cc(O)ccc34)c2)C(N)=O)[C@@H](C)O)NC(=O)[C@H](Cc2c[nH]c3ccccc23)NC1=O | Nectin-1 (NECTIN1, Homo sapiens, UniProt Q15223) | fluorescence polarization |  |  | > 2000 |

Some of these lines once more:
| SMILES | target | assay | test system | setting | Kd [nM] |
| --- | --- | --- | --- | --- | --- |
| CC[C@H](C)[C@H](NC(=O)[C@H](CC(=O)O)NC(=O)[C@H](CCCNC(=N)N)NC(=O)[C@@H](NC(=O)c1ccc2c(c1)C(=O)OC21c2ccc(N(C)C)cc2Oc2cc(N(C)C)ccc21)[C@@H](C)O)C(=O)N[C@@H](Cc1ccc(O)cc1)C(=O)N[C@@H](CCC(=O)O)C(=O)N[C@H](C(=O)N[C@@H](CC(=O)O)C(=O)N[C@@H](Cc1ccc(O)cc1)C(=O)N[C@@H](Cc1ccc(OP(=O)(O)O)cc1)C(=O)N[C@@H](CCCNC(=N)N)C(=O)N[C@@H](CCCCN)C(=O)NCC(=O)NCC(=O)N[C@@H](CCCCN)C(=O)NCC(=O)N[C@@H](CC(C)C)C(=O)N[C@@H](CC(=O)O)C(=O)O)[C@@H](C)O | Crk-like protein, SH2 domain (Homo sapiens, UniProt P46109) | binding |  |  | 1830 |
| CC(C)C[C@@H]1NC(=O)[C@@H]2CSSC[C@@H](C(=O)NCC(=O)O)NC(=O)[C@H](Cc3ccccc3)NC(=O)CNC(=O)[C@H](CC(N)=O)NC(=O)[C@@H]3CCCN3C(=O)CNC(=O)[C@@H]3CSSC[C@H](NC(=O)[C@H](CCCNC(=N)N)NC(=O)[C@H](CCC(N)=O)NC(=O)[C@H](CCCNC(=N)N)NC(=O)[C@H](CCCCN)NC(=O)[C@H](C(C)C)NC(=O)[C@H](C)NC(=O)[C@H](CC(N)=O)NC(=O)[C@H](CO)NC(=O)[C@H](C)NC(=O)[C@H](CCCNC(=N)N)NC(=O)[C@@H](NC(=O)CN)CSSC[C@H](NC(=O)CNC(=O)[C@H](C)NC1=O)C(=O)N[C@@H](C(C)C)C(=O)N3)C(=O)N[C@@H](CCCCN)C(=O)N[C@@H](CCC(N)=O)C(=O)N[C@@H](CC(=O)O)C(=O)N[C@@H](CO)C(=O)N[C@@H](CC(=O)O)C(=O)N2 | LRP6 E1 domain | binding, SPR |  | pH 7.5 | 21.2 |
